Published values from different studies.
A part holds a random share of what one study measured.

Set 1
Target: PABPC1L2, full length, GST fusion (mouse, UniProt A0ABA7IW68)
Method: RNAcompete
Form: RNA
Matrix: in vitro
Tested at: 20 nM
Notes: 7-mer, probes averaged, single round
Baseline: mean of 7-mers
Direction: higher = stronger binding
Construct (chain): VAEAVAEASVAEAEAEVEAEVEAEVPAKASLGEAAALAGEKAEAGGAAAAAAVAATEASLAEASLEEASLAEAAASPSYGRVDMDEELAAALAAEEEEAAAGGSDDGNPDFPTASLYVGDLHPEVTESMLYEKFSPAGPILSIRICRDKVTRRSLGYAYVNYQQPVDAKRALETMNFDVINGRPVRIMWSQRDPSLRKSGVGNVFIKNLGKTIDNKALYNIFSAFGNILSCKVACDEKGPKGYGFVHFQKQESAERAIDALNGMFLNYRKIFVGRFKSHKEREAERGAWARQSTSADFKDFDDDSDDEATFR
Sequence	7-mer Z-score
CGAUUAU	-0.255
CUUCUGG	-0.246
CCAGGCC	-0.142
ACUUUAA	0.0841
CCACGGU	-0.0935

Set 2
Target: Histone acetyltransferase KAT6A, winged helix 1, GST fusion (KAT6A, Homo sapiens, UniProt Q92794, residues 1-85)
Method: protein binding microarray
Form: double-stranded DNA, one strand shown
Matrix: in vitro
Tested at: not given
Notes: 8-mer, flanks averaged, mean of 2 arrays, mostly near background
Baseline: not given
Direction: higher = stronger binding
Target sequence (chain): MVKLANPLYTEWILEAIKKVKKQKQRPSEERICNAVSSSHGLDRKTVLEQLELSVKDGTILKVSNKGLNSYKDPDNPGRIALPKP
Sequence	E-score
ACTAGGTA	-0.183
TTGCGAAA	0.0224
TGATGTAA	-0.119
AAGCCCAA	-0.198
AGCCGGGC	0.264
ACTTCTCG	-0.121
CTGCTCAC	-0.171
GCCAAAGC	0.145
CGCTGTCC	0.231

Set 3
Target: Ras GTPase-activating protein-binding protein 1, RRM domain (G3BP1, Homo sapiens, UniProt Q13283)
Sequence of UniProt Q13283 (whole entry, looked up): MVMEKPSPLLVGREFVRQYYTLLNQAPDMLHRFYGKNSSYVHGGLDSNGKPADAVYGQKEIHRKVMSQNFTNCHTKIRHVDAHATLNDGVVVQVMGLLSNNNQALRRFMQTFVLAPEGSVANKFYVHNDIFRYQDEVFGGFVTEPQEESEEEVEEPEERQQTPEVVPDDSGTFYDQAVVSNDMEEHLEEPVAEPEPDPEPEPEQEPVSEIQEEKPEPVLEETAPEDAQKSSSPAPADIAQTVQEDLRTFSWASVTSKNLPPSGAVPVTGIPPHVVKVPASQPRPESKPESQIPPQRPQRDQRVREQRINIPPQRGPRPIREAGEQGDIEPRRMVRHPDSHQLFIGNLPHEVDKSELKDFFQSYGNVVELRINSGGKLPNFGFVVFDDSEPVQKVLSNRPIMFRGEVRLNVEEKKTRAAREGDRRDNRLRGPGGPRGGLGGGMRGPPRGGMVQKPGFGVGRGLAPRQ
Method: RNA Bind-n-Seq
Form: RNA
Matrix: in vitro
Tested at: 1 µM
Notes: whole 134-nt RNA, ends assumed
Added: 150 mM KCl
Baseline: input library
Direction: higher = stronger binding
Sequence	log2 enrichment
GGGAGUUCUACAGUCCGACGAUCCACAGACAACACGCACCCACACAGACACAGAGGGAAGGGGUUGGGAUGGGGACAGGGUGCACAGCAGGGCGGGGUAGGACCCCAGCCCCGUGGAAUUCUCGGGUGUCAAGG	-0.25
GGGAGUUCUACAGUCCGACGAUCCACAGACAACACGCACCCACACAGACACAGAGGGAAGGGGUUGGGAUGGGGACAGGGUGCACAGCAGGGCGGGGUAGGAGCCCAGCCCCUUGGAAUUCUCGGGUGUCAAGG	-0.442
GGGAGUUCUACAGUCCGACGAUCCACAGACAACACGCACCCACACAGACACAGAGGGAAGGGGUUGGGAUGGGGACAGGGUGCACAGCAGGGCGGGGUAGGACCGCAGCCCCUUGGAAUUCUCGGGUGUCAAGG	-0.393
GGGAGUUCUACAGUCCGACGAUCCCUCAAGUCCUGUGCUACACAUCGUAUGUACCGAAUCGGAGGAGGGGAGGGGAAAGUAUUAUGUUACGCCGUUCGGAUCUGCACUUCCAGUGGAAUUCUCGGGUGUCAAGG	-0.218

Further values, each from its own experiment
Substance	target	test	system	conditions	how to read	quantity	value
PhoQ, residues 284 288 289 292 302 303 ALASRC	PhoP, residues 12 14 15 18 19 QWHVF (Escherichia coli, UniProt P23836)	Sort-seq, measured: YFP reporter	E. coli	PhoQ-PhoP variant library, added: 10 µM Mg2+	baseline: high Mg2+ state, higher = stronger signaling	fold induction	1.56
